Assay results pooled from the literature.
Protocols differ between the studies behind these lines. Values joined by “and” are separate records of one study, mostly repeats; a detail may differ. Numbers after ± are the reported error.

| SMILES | cell line | assay | test system | conditions | how to read | quantity | value |
| --- | --- | --- | --- | --- | --- | --- | --- |
| CSCC[C@H](NC(=O)[C@@H](NC(=O)[C@H](CCC(N)=O)NC(=O)[C@H](CO)NC(=O)[C@@H](N)C(C)C)[C@@H](C)O)C(=O)N[C@@H](CCCNC(=N)N)C(=O)N[C@@H](CCC(N)=O)C(=O)N[C@H](C(=O)N[C@@H](C)C(=O)N[C@H](C(=O)N1CCC[C@H]1C(=O)N[C@@H](CC(C)C)C(=O)N[C@@H](CC(C)C)C(=O)N[C@@H](Cc1c[nH]c2ccccc12)C(=O)N[C@@H](Cc1ccccc1)C(=O)N[C@@H](Cc1c[nH]c2ccccc12)C(=O)N[C@H](C(=O)NCC(=O)N[C@@H](CO)C(=O)N[C@@H](CC(C)C)C(=O)NCCOCCOCCOCCOCCOCCOCCOCCOCCOCCOCCOCCOCCC(=O)N[C@@H](CS)C(N)=O)[C@@H](C)O)C(C)C)[C@@H](C)O | HCC15 | phage binding | – | – | baseline: targeting over control phage | selectivity ratio | 16 ± 2.6 |
| C#CCN1C(=O)C(CC#C)(C(=O)OCC)Oc2ccccc21 (stereo not drawn) | HEK293T | cytotoxicity, CCK-8 | – | 25 µM, 72 h | – | inhibition | 0.66 ± 0.06% |
| CC(C)[C@H](NC(=O)[C@H](CCCNC(=N)N)NC(=O)[C@@H]1CCCN1C(=O)[C@@H](NC(=O)[C@H](C)NC(=O)[C@H](Cc1ccc(O)cc1)NC(=O)[C@H](CCC(N)=O)NC(=O)[C@H](CCCCN)NC(=O)[C@H](CCCNC(=N)N)NC(=O)[C@@H]1CCCN1C(=O)[C@H](CCC(=O)O)NC(=O)[C@@H](NC(=O)[C@H](C)N)[C@@H](C)O)[C@@H](C)O)C(=O)N[C@@H](Cc1ccccc1)C(=O)N[C@@H](Cc1c[nH]c2ccccc12)C(=O)N[C@H](C(=O)N[C@@H](CC(=O)O)C(=O)N[C@@H](C)C(=O)N1CCC[C@H]1C(=O)NCC(=O)NCCOCCOCCOCCOCCOCCOCCOCCOCCOCCOCCOCCOCCC(=O)N[C@@H](CS)C(N)=O)[C@@H](C)O | H2087 | phage binding | – | 10 min, 37 °C | baseline: control phage | selectivity ratio | 1.3 ± 1.1 |
| CC(C)(C)C(=O)OCOP(=O)(OCOC(=O)C(C)(C)C)C1CCCN(O)C1=O (stereo not drawn) | OVCAR-8 | – | – | – | – | CC50 | > 100 µM |
| O=C(C[Se]C(=O)c1ccco1)Nc1cccc(C(F)(F)F)c1 | NCI60 leukemia subpanel | cell growth | – | 10 µM, 48 h, one-dose | – | mean growth percent | 35.4% |
| CC(C)C[C@H](NC(=O)[C@H](CC(=O)O)NC(=O)CNC(=O)[C@@H](N)CCCNC(=N)N)C(=O)N[C@@H](C)C(=O)N[C@H](C(=O)N[C@@H](CC(C)C)C(=O)N[C@@H](CCCNC(=N)N)C(=O)N[C@@H](CCC(N)=O)C(=O)N[C@@H](CC(C)C)C(=O)N[C@@H](C)C(=O)N[C@@H](CCC(N)=O)C(=O)N[C@@H](CCC(=O)O)C(=O)N[C@@H](CC(=O)O)C(=O)NCC(=O)N[C@H](C(=O)N[C@H](C(=O)NCC(=O)N[C@H](C(=O)N[C@@H](CCCNC(=N)N)C(=O)NCCOCCOCCOCCOCCOCCOCCOCCOCCOCCOCCOCCOCCC(=O)N[C@@H](CS)C(N)=O)C(C)C)C(C)C)C(C)C)[C@@H](C)O | HCC15 | phage binding | – | – | baseline: targeting over control phage | selectivity ratio | 1 ± 0.51 |
| CC(C)CC(O)(CC(C)C)c1cn(C(=O)N2CCCC2)nn1 | mouse T-cells | SILAC proteomics, item: ARHGEF2 | – | 1 nM, 6 h, unit not given | baseline: DMSO | protein level | 1.08 |
| O=C(C[Se]C(=O)C12CC3CC(CC(C3)C1)C2)Nc1cccc(C(F)(F)F)c1 | NCI60 prostate subpanel (PC-3, DU-145) | cytotoxicity, inhibitor | – | five-dose | – | CC50 | 32.8 µM |
| COc1ccccc1-c1ccncc1C(=O)Nc1nnc(OCc2ccc(Cl)cc2)s1 | HCT116 BRCA2-/- | – | – | 1 µM, average of 3 runs | baseline: untreated | colony survival | 53.6% |
| O=C(C[Se]C(=O)c1ccccc1)Nc1cccc(C(F)(F)F)c1 | NCI60 prostate subpanel (PC-3, DU-145) | cell growth | – | 10 µM, 48 h, one-dose | – | mean growth percent | -62.9% |
| Cc1cc(Oc2nc(N3CC[C@@H](c4ccncc4)C3)ncc2F)[nH]n1 | Panc1005 | cell proliferation | pancreas cancer | – | – | IC50 | 53.7 µM |
| O=C(C[Se]C(=O)c1cccs1)Nc1cccc(C(F)(F)F)c1 | NCI60 NSCLC subpanel | NCI60 five-dose screen | – | – | – | CC50 | 5.93 µM |
| CC(=O)NCSC[C@H](NC(=O)[C@@H]1CCCN1C(=O)[C@H](C)NC(=O)[C@@H](NC(=O)CNC(=O)[C@@H](NC(=O)[C@H](Cc1c[nH]c2ccccc12)NC(=O)[C@H](C)NC(=O)CNC(=O)[C@H](CO)NC(=O)[C@H](C)NC(=O)[C@@H]1CCCN1C(=O)[C@H](Cc1c[nH]c2ccccc12)NC(=O)[C@H](C)NC(=O)[C@H](C)NC(=O)[C@@H](N)Cc1ccc(O)cc1)[C@@H](C)O)[C@@H](C)O)C(=O)N[C@@H](CO)C(=O)N[C@@H](C)C(=O)NCC(=O)N[C@H](C(=O)NCCOCCOCCOCCOCCOCCOCCOCCOCCOCCOCCOCCOCCC(=O)N[C@@H](CS)C(N)=O)[C@@H](C)O | H1155 lung large cell carcinoma | cell binding, phage binding, item: output/input phage | – | 10 min, 37 °C | baseline: control phage | selectivity ratio | 1.2 ± 0.44 |
| O=C(C[Se]C(=O)c1ccc2ccccc2n1)Nc1cccc(C(F)(F)F)c1 | NCI60 ovarian subpanel | cytotoxicity, inhibitor | – | five-dose | – | CC50 | 9.42 µM |
| O=C(O)c1ccc(-c2nc(-c3ccccc3Cl)c3sccn23)cc1 | human CD34+ hematopoietic stem cells | megakaryocyte differentiation, flow cytometry, item: CD41a | – | 10 µM, day 10, with: TPO | baseline: control | fold change | 1 fold and 1.02 fold and 1.01 fold |

A few entries again:
| SMILES | cell line | assay | test system | conditions | how to read | quantity | value |
| --- | --- | --- | --- | --- | --- | --- | --- |
| O=C(C[Se]C(=O)C12CC3CC(CC(C3)C1)C2)Nc1cccc(C(F)(F)F)c1 | NCI60 prostate subpanel (PC-3, DU-145) | cytotoxicity, inhibitor | – | five-dose | – | CC50 | 32.8 µM |
| COc1ccccc1-c1ccncc1C(=O)Nc1nnc(OCc2ccc(Cl)cc2)s1 | HCT116 BRCA2-/- | – | – | 1 µM, average of 3 runs | baseline: untreated | colony survival | 53.6% |
